Results of several laboratories.
Lines come from different studies, so protocols differ. Several values in a cell are separate wells, animals, samples, runs or records. ± marks the error that the study gave.
ABCG2: Broad substrate specificity ATP-binding cassette transporter ABCG2 (ABCG2, Homo sapiens, UniProt Q9UNQ0)
UniProt Q9UNQ0, sequence (whole entry, looked up): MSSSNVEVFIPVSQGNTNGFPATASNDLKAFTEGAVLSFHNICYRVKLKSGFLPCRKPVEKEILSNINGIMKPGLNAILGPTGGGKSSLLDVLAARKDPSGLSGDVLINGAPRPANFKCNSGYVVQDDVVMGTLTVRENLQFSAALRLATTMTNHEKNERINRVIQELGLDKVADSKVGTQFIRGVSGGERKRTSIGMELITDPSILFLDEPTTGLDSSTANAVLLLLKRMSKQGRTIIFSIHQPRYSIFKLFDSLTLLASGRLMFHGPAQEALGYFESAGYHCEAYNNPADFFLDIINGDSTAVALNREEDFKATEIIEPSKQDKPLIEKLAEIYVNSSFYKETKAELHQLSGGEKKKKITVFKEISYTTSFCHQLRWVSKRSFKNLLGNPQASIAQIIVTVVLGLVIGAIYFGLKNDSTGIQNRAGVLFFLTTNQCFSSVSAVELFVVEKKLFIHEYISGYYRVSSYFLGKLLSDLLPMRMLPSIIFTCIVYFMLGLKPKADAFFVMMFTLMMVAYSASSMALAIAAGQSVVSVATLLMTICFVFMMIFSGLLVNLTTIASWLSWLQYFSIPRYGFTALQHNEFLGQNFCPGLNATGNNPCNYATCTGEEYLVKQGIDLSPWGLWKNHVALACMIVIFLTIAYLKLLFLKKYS
UniProt P10635, sequence (whole entry, looked up): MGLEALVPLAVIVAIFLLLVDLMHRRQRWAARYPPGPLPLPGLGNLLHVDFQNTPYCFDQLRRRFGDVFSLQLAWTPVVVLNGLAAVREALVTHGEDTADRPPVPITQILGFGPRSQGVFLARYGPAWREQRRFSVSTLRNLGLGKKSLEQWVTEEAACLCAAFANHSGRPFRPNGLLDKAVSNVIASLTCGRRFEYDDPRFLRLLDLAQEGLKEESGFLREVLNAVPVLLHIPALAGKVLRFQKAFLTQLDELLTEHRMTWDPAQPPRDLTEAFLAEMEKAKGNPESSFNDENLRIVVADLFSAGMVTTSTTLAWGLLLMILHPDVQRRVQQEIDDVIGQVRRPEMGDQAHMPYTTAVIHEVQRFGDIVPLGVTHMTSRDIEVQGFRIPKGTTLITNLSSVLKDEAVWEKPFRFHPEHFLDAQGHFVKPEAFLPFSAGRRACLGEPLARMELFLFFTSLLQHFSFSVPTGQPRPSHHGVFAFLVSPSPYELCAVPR
UniProt P16234, sequence (whole entry, unmodified, looked up): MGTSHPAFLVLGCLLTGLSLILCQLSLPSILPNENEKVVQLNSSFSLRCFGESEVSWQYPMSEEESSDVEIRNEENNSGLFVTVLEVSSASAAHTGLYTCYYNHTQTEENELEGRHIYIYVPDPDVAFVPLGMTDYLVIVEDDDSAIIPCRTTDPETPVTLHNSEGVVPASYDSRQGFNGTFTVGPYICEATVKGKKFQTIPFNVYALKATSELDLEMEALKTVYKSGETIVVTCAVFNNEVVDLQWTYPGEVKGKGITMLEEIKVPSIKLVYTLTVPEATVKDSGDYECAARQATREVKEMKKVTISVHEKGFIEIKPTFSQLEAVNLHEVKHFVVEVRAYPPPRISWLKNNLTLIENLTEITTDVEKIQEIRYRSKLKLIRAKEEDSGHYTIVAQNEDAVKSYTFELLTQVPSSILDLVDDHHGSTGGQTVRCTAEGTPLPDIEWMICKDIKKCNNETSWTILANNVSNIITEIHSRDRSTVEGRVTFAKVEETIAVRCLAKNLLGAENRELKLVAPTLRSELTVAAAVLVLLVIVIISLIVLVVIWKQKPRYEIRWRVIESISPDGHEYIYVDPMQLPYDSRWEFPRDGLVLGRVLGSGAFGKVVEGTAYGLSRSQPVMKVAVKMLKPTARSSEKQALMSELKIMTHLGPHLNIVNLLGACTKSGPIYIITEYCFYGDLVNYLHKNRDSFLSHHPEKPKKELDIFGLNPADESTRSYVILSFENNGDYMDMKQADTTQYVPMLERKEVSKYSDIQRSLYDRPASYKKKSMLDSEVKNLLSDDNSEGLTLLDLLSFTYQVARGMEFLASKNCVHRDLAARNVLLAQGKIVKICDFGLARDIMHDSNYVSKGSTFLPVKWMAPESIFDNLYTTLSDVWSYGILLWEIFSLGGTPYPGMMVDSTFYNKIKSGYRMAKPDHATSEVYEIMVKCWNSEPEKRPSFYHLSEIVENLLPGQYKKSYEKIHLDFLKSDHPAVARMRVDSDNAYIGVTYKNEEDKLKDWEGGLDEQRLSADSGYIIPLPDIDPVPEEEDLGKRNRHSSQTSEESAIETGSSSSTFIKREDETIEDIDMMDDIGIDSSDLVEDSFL
UniProt Q9NPD5, sequence (whole entry, looked up): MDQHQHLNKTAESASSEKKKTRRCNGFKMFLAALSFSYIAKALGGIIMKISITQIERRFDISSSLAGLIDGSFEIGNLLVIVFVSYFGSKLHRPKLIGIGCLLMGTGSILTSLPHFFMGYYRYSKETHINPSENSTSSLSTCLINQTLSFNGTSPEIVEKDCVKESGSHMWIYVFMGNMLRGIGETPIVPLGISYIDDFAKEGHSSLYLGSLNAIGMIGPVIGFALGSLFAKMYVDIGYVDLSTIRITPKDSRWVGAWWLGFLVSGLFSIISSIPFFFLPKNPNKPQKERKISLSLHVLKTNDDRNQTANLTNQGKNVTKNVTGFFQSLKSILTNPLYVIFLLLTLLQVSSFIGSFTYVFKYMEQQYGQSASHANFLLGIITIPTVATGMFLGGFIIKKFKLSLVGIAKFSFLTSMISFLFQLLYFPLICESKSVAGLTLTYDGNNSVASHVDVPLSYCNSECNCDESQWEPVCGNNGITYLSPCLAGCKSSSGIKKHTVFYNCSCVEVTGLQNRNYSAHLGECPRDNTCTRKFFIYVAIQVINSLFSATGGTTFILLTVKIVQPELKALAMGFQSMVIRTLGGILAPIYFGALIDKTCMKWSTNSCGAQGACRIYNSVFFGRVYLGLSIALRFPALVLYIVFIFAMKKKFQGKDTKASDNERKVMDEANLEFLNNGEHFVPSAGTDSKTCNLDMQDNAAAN

Structure (SMILES) | target or system | assay | system | conditions | how to read | endpoint | result
CN(O)C(=O)CCC(=O)NCCCN(CCCCN(CCCNC(=O)CCC(=O)N(C)O)C(=O)CCC(=O)N(C)O)C(=O)CCC(=O)N(C)O.[89Zr] | TF (Homo sapiens, UniProt P02787) | transchelation challenge | – | concentration not given, 5 days, 37 °C, with: apo-transferrin 10 equiv | – | transferrin binding | 11.1 ± 1.2%
CN1CCCNC(=O)c2cccc(c2)C(=O)NCCCN(C)CCCNc2cccc3c2C(=O)c2cccc(c2C3=O)NCCC1 | NHEK | CCK-8 | – | 5 µM, 48 h | baseline: untreated | viability | 42.6%
CNc1nc(N)nc2c1ncn2[C@@H]1O[C@H](CO)[C@@H](O)[C@@]1(C)F | ABCG2 | bidirectional transport | MDCKII transfected with human BCRP | 10 µM, with: Ko143 1 µM | – | efflux ratio | 0.917 ± 0.05
CCCCCC(=O)N[C@@H](Cc1ccc(N)cc1)C(=O)N[C@@H](CCCC)C(=O)N[C@@H](Cc1ccccc1)C(=O)[C@@]1(C)CO1 | Trypanosoma brucei brucei | – | HepG2 cells, Lister 427 | – | baseline: HepG2 CC50 over T. brucei EC50 | selectivity index | 6
C[n+]1cccc2cc(/C=N/NC(=O)c3cccc(C(=O)N/N=C/c4ccc5c(ccc[n+]5C)c4)c3)ccc21 | MYC parallel G4 DNA | FRET melting | – | 1 µM, DNA 0.2 µM | – | ΔTm | 3.7 ± 0.1 °C
N#C[C@@H]1CC(F)(F)CN1C(=O)CNC(=O)c1ccnc2c(NC(=O)[C@H](CCCCNC(=O)CCOCCOCCOCCOCCOCCOCCNC(=O)CN3CCN(CC(=O)[O-])CCN(CC(=O)[O-])CCN(CC(=O)[O-])CC3)NC(=O)CCCc3ccc(I)cc3)cccc12.[177Lu+3] | U-87 MG tumour model | – | host not given, heart | 1 h, tumour-bearing | – | tracer uptake | 5.67 %ID/g
CC(C)C[C@H](NC(=O)[C@H](Cc1ccc(O)cc1)NC(=O)[C@@H](CCCNC(=N)N)NC(=O)[C@@H](CO)NC(=O)[C@H](Cc1ccccc1)NC(=O)[C@H](CC1CCCCC1)NC(=O)[C@H](CC(=O)O)NC(=O)CN1CCN(CC(=O)O)CCN(CC(=O)O)CCN(CC(=O)O)CC1)C(=O)N[C@@H](Cc1c[nH]c2ccccc12)C(=O)N[C@@H](CO)C(=O)O [copper-64 labelled] | – | – | human, kidney | concentration not given, 1 h | – | activity concentration | 10400 Bq/mL and 9970 Bq/mL and 7490 Bq/mL and 8610 Bq/mL and 9640 Bq/mL and 7290 Bq/mL
C=C(NC(=O)c1csc(-c2nc3c(cc2O)-c2nc(cs2)C(=O)NC(C(C)O)C(=O)NC(=C(C)OC)c2nc(cs2)C(=O)NC2c4nc(cs4)C(=O)NC(COC(=O)c4c5c6c(cccc6n4O)COC(=O)C(OC4CC(C)(O)C(N(C)C)C(C)O4)C2OC5)c2nc-3cs2)n1)C(N)=O (stereo not drawn) | – | – | cynomolgus monkey, plasma | intravenous, 1 mg/kg, single dose, infusion | – | Tmax | 4.2 min
CC(C)Cc1ccc(C(C)C(=O)N[C@@H](CCCCNC(=O)CCOCCOCCOCCOCCOCCOCCNC(=O)CN2CCN(CC(=O)[O-])CCN(CC(=O)[O-])CCN(CC(=O)[O-])CC2)C(=O)Nc2cccc3c(C(=O)NCC(=O)N4CC(F)(F)C[C@H]4C#N)ccnc23)cc1.[177Lu+3] (stereo partly drawn) | U-87 MG tumour model | – | host not given, muscle | 4 h, tumour-bearing | – | tracer uptake | 3 %ID/g
C[n+]1ccc(/C=N/NC(=O)c2cc(C(=O)N/N=C/c3cc[n+](C)cc3)ncn2)cc1 | MYC parallel G4 DNA | FRET melting | – | 1 µM, DNA 0.2 µM | – | ΔTm | 2.5 ± 1.7 °C
Cc1nn(-c2cccc(N)c2)c(=O)c2cnc(Nc3ccc(N4CCNCC4)cc3)nc12 | PDGFRA (Homo sapiens, UniProt P16234, T674I) | enzyme activity, inhibitor | – | – | – | IC50 | > 10 µM
Cc1ncsc1-c1ccc(C(C)NC(=O)C2CC(O)CN2C(=O)C(NC(=O)CCCCCCCCCCN2CCCC(Nc3ncc(Cl)c(Nc4ccccc4S(=O)(=O)C(C)C)n3)C2)C(C)(C)C)cc1 (stereo not drawn) | 22Rv1 | RNA-seq, refers to: SBNO2 mRNA | – | concentration not given | baseline: DMSO | log2 fold change | -1.24
N#C[C@@H]1CCCN1C(=O)CNC(=O)c1ccnc2ccc(OCCCN3CCN(C(=O)CCc4ccc5c(c4)CN4CCN6CC(=O)[O][68Ga-]([O]C(=O)C4)([O]5)[O]c4ccc(CCC(=O)N5CCN(CCCOc7ccc8nccc(C(=O)NCC(=O)N9CCC[C@H]9C#N)c8c7)CC5)cc4C6)CC3)cc12 | U-87 MG tumour model | – | host not given, stomach | 2 h, tumour-bearing | – | tracer uptake | 1.91 %ID/g
O=C(Nc1cnccc1-c1ccc([18F])nc1)c1ccnc(NC(=O)C2CC2)c1 | – | – | mice, transgenic, GSK-3β, early-stage, spleen | intravenous, dose not given, 120 min | – | SUV | 0.161
CCN(CC)CC#CCNc1ccnc2cc(Cl)ccc12 | Salmonella typhimurium | mini-Ames test | TA98 | 250.0 µg/well, with rat liver S9 | – | revertants | 12 revertants/well and 14 revertants/well
CNc1nc(N)nc2c1ncn2[C@@H]1O[C@H](CO[P@](=O)(O)N[C@@H](C)C(=O)O)[C@@H](O)[C@@]1(C)F | ABCG2 | bidirectional transport | MDCKII transfected with human BCRP | 10 µM, with: Ko143 1 µM | – | Papp B to A | 0.985 ± 0.059 ×10⁻⁶ cm/s
COC1CN([C@H]2CC[C@H]([C@@]3(C)Oc4c(Cl)cc(C(=O)NCc5c(SC)cc(C)[nH]c5=O)c(C)c4O3)CC2)C1 | – | RNA-seq, refers to: MAST4 mouse homolog | mouse, HT-1376 xenograft, whole blood | dose not given | baseline: vehicle | log2 fold change | 0.318
COc1cccc(OC)c1-c1cc(C(=O)NC2(C(=O)O)C3CC4CC(C3)CC2C4)nn1-c1ccc(C(=O)N(C)CCCN(C)C(=O)[C@H](CCCCNC(=O)[C@H](CC(C)C)NC(=O)C2OC2C(=O)O)NC(=O)CN2CCN(CC(=O)[O-])CCN(CC(=O)[O-])CCN(CC(=O)[O-])CC2)cc1C(C)C.[177Lu+3] (mixture of isomers) | HT-29 tumour model | – | host not given, bone | 4 h, tumour-bearing | – | tracer uptake | 0.41 %ID/g
CNC(=O)C1CCCN(C(=O)C2CC3CCC2N3C(=O)[C@@H]2C[C@@H](O)CN2C(=O)NCc2cccc(Cl)c2F)C1 (mixture of isomers) | Cytochrome P450 2D6 (CYP2D6, Homo sapiens, UniProt P10635) | enzyme activity, inhibitor, time-dependent inhibition | – | 1.85 µM, preincubated with NADPH | – | dextrorphan formation | 131 ng/mL
O=C(c1ccc(OCCN2CCCCC2)cc1)c1c(-c2ccc(O[C@@H]3O[C@H](C(=O)O)[C@@H](O)[C@H](O)[C@H]3O)cc2)sc2cc(O)ccc12 | SLCO1B3 (Homo sapiens, UniProt Q9NPD5) | – | liver | – | – | contribution to uptake | 80%
O=C1NC2(CC2)COc2ncc(F)cc2[C@H]2COCCN2c2ccn3ncc1c3n2 | Salmonella typhimurium | Ames test | TA102 | 50 µg/plate, 48 h, with: rat liver S9 | – | revertant colonies | 398 ± 44 revertants/plate
CC(C)OCCOCc1ccc(OCC(O)CN(N=O)C(C)C)cc1 (stereo not drawn) | Salmonella typhimurium | Ames test | TA100 | 158 µg/plate, without metabolic activation | baseline: solvent control | revertant fold increase | 0.9 fold
N#Cc1cccc(-c2ccc(=O)n(Cc3cccc(-c4ncc(OCC5CCN(CC(=O)N6CCN(c7ccc8c(c7)C(=O)N(C7CCC(=O)NC7=O)C8=O)CC6)CC5)cn4)c3)n2)c1 (stereo not drawn) | Caco-2 | transwell monolayer | – | 2 µM, 120 min, pH 7.4, 0.1% DMSO, with: Ko143 10 µM | – | efflux ratio | 6.9
CCCC[C@H](NC(=O)COCCOCCNC(=O)CN1CCN(CC(=O)O)CCN(CC(=O)O)CC1)C(=O)N[C@H]1CC(=O)NCCCC[C@@H](C(N)=O)NC(=O)[C@H](Cc2c[nH]c3ccccc23)NC(=O)[C@H](CCCNC(=N)N)NC(=O)[C@@H](Cc2ccccc2)NC(=O)[C@H](Cc2c[nH]cn2)NC1=O [technetium-99m labelled] | – | – | C57 mouse, kidneys | intravenous, 0.037 MBq, 24 h | – | tissue uptake | 0.03 ± 0.01 %ID/g
O=C1C2CC3CC1CC(C(=O)N1CCN(c4ccc([N+](=O)[O-])c5ncccc45)CC1)(C3)C2 | Salmonella typhimurium | Ames test | TA100 | 0.05 µg/well, without S9 | – | mean revertant colonies | 20 colonies/well
CCCCCC(=O)N[C@@H](Cc1ccc(NC(=O)OC(C)(C)C)cc1)C(=O)N[C@@H](CCCC)C(=O)N[C@@H](Cc1ccccc1)C(=O)[C@@]1(C)CO1 | Trypanosoma brucei brucei | – | HepG2 cells, Lister 427 | – | baseline: HepG2 CC50 over T. brucei EC50 | selectivity index | < 1
COc1cccc(OC)c1-c1cc(C(=O)NC2(C(=O)O)C3CC4CC(C3)CC2C4)nn1-c1ccc(C(=O)N(C)CCOCCN(C)C(=O)[C@H](CCCCNC(=O)[C@H](CC(C)C)NC(=O)C2OC2C(=O)O)NC(=O)CN2CCN(CC(=O)[O-])CCN(CC(=O)[O-])CCN(CC(=O)[O-])CC2)cc1C(C)C.[177Lu+3] (mixture of isomers) | HT-29 tumour model | – | host not given, blood | 4 h, tumour-bearing | – | tracer uptake | 2.5 %ID/g

A few entries again:
Structure (SMILES) | target or system | assay | system | conditions | how to read | endpoint | result
CNC(=O)C1CCCN(C(=O)C2CC3CCC2N3C(=O)[C@@H]2C[C@@H](O)CN2C(=O)NCc2cccc(Cl)c2F)C1 (mixture of isomers) | Cytochrome P450 2D6 (CYP2D6, Homo sapiens, UniProt P10635) | enzyme activity, inhibitor, time-dependent inhibition | – | 1.85 µM, preincubated with NADPH | – | dextrorphan formation | 131 ng/mL
O=C(c1ccc(OCCN2CCCCC2)cc1)c1c(-c2ccc(O[C@@H]3O[C@H](C(=O)O)[C@@H](O)[C@H](O)[C@H]3O)cc2)sc2cc(O)ccc12 | SLCO1B3 (Homo sapiens, UniProt Q9NPD5) | – | liver | – | – | contribution to uptake | 80%
O=C1NC2(CC2)COc2ncc(F)cc2[C@H]2COCCN2c2ccn3ncc1c3n2 | Salmonella typhimurium | Ames test | TA102 | 50 µg/plate, 48 h, with: rat liver S9 | – | revertant colonies | 398 ± 44 revertants/plate
